# Experimental data of several laboratories.
# Parts stem from different laboratories: compare values within a part only. Changes are numbered by the printed parent chain.

# Block 1
# Target: CCNA1, cyclin fold, Cln2 fusion (human)
# Technique: yeast growth competition, sequencing
# Sample: yeast
# Setting: weak parent motif
# Relative to: not given
# Direction: higher = stronger binding
# Starting sequence: MASTL docking peptide (human); PMIAKNLMCELDE
Change,normalised enrichment score
PMIAKNLMCVLDE [E10V],0.396
PMIAKNLMCELTE [D12T],0.207
PMIAKNLMVELDE [C9V],-0.14
PMIRKNLMCELDE [A4R],0.419
PMIAKKLMCELDE [N6K],0.346
PMIAKNLMCEHDE [L11H],0.136
PMIAANLMCELDE [K5A],0.516
PMIAKNLMCEMDE [L11M],-0.625
PMCAKNLMCELDE [I3C],0.0757
PMIAKNPMCELDE [L7P],0.0694
PMICKNLMCELDE [A4C],-0.0895
PMIAKNLMCELME [D12M],0.317
PMIAKFLMCELDE [N6F],-0.193
PMNAKNLMCELDE [I3N],-0.0338
PNIAKNLMCELDE [M2N],-0.0314
PMIAKNLMCELGE [D12G],0.308
PMIAKNLMCCLDE [E10C],-0.0576
PMIIKNLMCELDE [A4I],0.0423
PFIAKNLMCELDE [M2F],0.236
PMIAKYLMCELDE [N6Y],0.0327
PMIAKNLMCRLDE [E10R],0.171
PHIAKNLMCELDE [M2H],0.201
PMIAKNLMRELDE [C9R],0.405
PMIMKNLMCELDE [A4M],-0.215
PTIAKNLMCELDE [M2T],-0.0537

# Block 2
# Target: Ras GTPase-activating protein-binding protein 1, full length (G3BP1, Homo sapiens, UniProt Q13283)
# UniProt Q13283, sequence (whole entry, looked up): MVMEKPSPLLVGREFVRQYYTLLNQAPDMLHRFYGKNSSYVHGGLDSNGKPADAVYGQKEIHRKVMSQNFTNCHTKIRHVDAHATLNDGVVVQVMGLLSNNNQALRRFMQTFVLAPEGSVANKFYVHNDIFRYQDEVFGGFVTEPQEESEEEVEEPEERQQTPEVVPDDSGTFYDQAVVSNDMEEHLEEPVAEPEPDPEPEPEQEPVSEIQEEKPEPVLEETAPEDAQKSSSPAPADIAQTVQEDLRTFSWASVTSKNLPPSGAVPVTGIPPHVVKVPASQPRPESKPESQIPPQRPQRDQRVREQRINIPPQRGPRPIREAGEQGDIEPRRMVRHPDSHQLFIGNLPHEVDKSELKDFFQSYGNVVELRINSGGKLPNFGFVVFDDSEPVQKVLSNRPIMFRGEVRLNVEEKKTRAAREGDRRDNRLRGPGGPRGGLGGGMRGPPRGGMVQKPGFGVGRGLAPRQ
# Technique: RNA Bind-n-Seq
# Molecule type: RNA
# Sample: in vitro
# Concentration: 200 nM
# Setting: whole 134-nt RNA, ends assumed
# Together with: 150 mM KCl
# Relative to: input library
# Direction: higher = stronger binding
# All sequences stand within: GGGAGUUCUACAGUCCGACGAUC … UGGAAUUCUCGGGUGUCAAGG
Strand,log2 enrichment
AGAGAAUAAGAAUUCAGCUGACAGGAGGCCUCUAUCCUGUCCCUCCACCCCACCCUCCACCUCAAUCCCCUCCCAUCUUCCCCAGACCUA,0.754
UUAAGGAAGGACACUGAGUCAUGCACAAGUCCUUGCCUUCUUGGUGCCCCUCGGAAAGCACAAGACCCCUCCUCUGCUGGGUGUGAUCAA,0.345
AAGUCCUGUGCUACACAUCGUAUGUACCGAAUCGGGUGGGUUUGGGAAAAAAAGGGAAAGUAUUAUGUUACGCCGUUCGGAUCUGCACUU,-0.113
CACAGACAACACGCACCCACACAGACACAGAGGGAAGGGGUUGGGAUGGGGACAGGGUGCACAGCAGGGCGGCGUAGGACCCCAGCCCCU,1.9
UCCUGUGCUACACAUCGUAUGUACCGAAUCGGGGUUUUUGGGGUUUGGGGUUUUUGGGGAAAGUAUUAUGUUACGCCGUUCGGAUCUGCA,0.86
UGUGCUACACAUCGUAUGUACCGAAUCGGGAAAAAAAGGGGAAAAAAAGGGGAAAAAAAGGGAAAGUAUUAUGUUACGCCGUUCGGAUCU,-0.558
CUGUGCUACACAUCGUAUGUACCGAAUCGGGGUUUGGGGUUUUUUUGGGGUUUUUUUGGGGAAAGUAUUAUGUUACGCCGUUCGGAUCUG,-0.265
CCUCAAGUCCUGUGCUACACAUCGUAUGUACCGAAUCGGUUGGGUUGGGUUGGAAAGUAUUAUGUUACGCCGUUCGGAUCUGCACUUCCA,-0.283
AGUCCUGUGCUACACAUCGUAUGUACCGAAUCGGGGAAAAAGGGGAGGGGUUUGGGGAAAGUAUUAUGUUACGCCGUUCGGAUCUGCACU,0.0849
CCUCAAGUCCUGUGCUACACAUCGUAUGUACCGAAUCGGAAAGGUUUGGAGGAAAGUAUUAUGUUACGCCGUUCGGAUCUGCACUUCCAG,-0.1

# Block 3
# Target: ABI1, truncated, D143A, DHFR fusion (Arabidopsis thaliana)
# Technique: DHFR PCA, deep sequencing
# Sample: yeast
# Setting: methotrexate growth selection, single substitutions
# Together with: (+)-ABA 4.8 µM
# Relative to: wild-type fitted maximum
# Direction: higher = stronger binding
# Starting sequence: PYL1, truncated, DHFR fusion (Arabidopsis thaliana); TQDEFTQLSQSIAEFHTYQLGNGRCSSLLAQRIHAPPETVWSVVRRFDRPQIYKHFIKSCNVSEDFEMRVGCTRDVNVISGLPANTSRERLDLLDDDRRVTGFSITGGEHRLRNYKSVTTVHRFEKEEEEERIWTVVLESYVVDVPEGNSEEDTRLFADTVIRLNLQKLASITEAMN
Change,relative binding score [%]
L93A,33.3
G148I,-4.24
E131I,65.5
L138Q,-18.4
G23K,62.8
I33E,4.25
I12W,3.59
L138N,-7.61
A170C,68.3
I105S,26.2
E129A,80.6
E152S,67.1
L28N,7.67
N177T,88.4
E147W,42.4
E128P,74.6
V70G,8.46
Y18V,40.1
R32A,56.1
P36K,60.5
L166G,-4.21
S150W,-2.57
R69L,50.5
E127Y,64.2
Q31R,53.5

# Block 4
# Target: Histone acetyltransferase KAT6A, winged helix 2, GST fusion (KAT6A, Homo sapiens, UniProt Q92794, residues 85-181)
# Technique: protein binding microarray
# Molecule type: double-stranded DNA, one strand shown
# Sample: in vitro
# Concentration: not given
# Setting: 8-mer, flanks averaged, mean of 2 arrays, mostly near background
# Relative to: not given
# Direction: higher = stronger binding
# Construct (chain): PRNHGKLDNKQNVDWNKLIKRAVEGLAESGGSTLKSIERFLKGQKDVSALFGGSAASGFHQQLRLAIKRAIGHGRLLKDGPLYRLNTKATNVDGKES
Strand,E-score
TCAAGCCA,-0.0485
ATAACAAG,0.189
ACTTCCCG,0.0633
AAAATGGC,0.00258
CACGGAGG,0.0975
AGGGCTTC,0.0406
CAGGCCCA,0.00219
CACCTAAA,0.0554
ACACTTAC,-0.111
CCGTGCAA,0.0368
AGATGTAT,-0.081
ATAATGCC,0.053
CGCTGGTA,0.00728
GTCAGAGA,0.0228
AATCCCAC,-0.0253
TATTGGAA,-0.243
AGAAATAG,0.00843
AGAGTGAC,-0.0739

# Further values, each from its own experiment
# Technique: two-hybrid
# Relative to: out of 4 tests
# Direction: higher = firmer interaction
# T1: itself; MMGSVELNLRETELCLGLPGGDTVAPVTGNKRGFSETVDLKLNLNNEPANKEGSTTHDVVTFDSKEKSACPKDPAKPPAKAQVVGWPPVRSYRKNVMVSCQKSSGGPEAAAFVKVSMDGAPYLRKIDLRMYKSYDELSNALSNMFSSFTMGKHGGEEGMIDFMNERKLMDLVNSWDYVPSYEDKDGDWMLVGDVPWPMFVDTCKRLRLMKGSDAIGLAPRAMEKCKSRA
# T2: itself; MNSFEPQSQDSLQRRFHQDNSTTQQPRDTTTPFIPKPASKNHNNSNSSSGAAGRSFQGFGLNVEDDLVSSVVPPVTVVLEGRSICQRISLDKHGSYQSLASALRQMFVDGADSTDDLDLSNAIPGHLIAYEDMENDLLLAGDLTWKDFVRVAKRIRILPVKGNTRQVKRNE
# T3: itself; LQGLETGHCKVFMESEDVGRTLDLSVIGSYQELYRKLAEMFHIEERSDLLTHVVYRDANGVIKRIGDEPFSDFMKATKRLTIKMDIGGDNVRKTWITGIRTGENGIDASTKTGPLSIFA
# T4: itself; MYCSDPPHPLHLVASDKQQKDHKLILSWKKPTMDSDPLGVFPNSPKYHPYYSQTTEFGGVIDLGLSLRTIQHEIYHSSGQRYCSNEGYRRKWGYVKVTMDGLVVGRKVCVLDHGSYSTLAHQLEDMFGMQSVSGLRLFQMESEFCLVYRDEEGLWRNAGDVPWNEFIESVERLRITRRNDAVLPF
# B1: IAA17 (Arabidopsis thaliana, UniProt P93830); chain MMGSVELNLRETELCLGLPGGDTVAPVTGNKRGFSETVDLKLNLNNEPANKEGSTTHDVVTFDSKEKSACPKDPAKPPAKAQVVGWPPVRSYRKNVMVSCQKSSGGPEAAAFVKVSMDGAPYLRKIDLRMYKSYDELSNALSNMFSSFTMGKHGGEEGMIDFMNERKLMDLVNSWDYVPSYEDKDGDWMLVGDVPWPMFVDTCKRLRLMKGSDAIGLAPRAMEKCKSRA
# B2: IAA33 (Arabidopsis thaliana, UniProt Q9FKM7); chain MNSFEPQSQDSLQRRFHQDNSTTQQPRDTTTPFIPKPASKNHNNSNSSSGAAGRSFQGFGLNVEDDLVSSVVPPVTVVLEGRSICQRISLDKHGSYQSLASALRQMFVDGADSTDDLDLSNAIPGHLIAYEDMENDLLLAGDLTWKDFVRVAKRIRILPVKGNTRQVKRNE
# B3: ARF10 575-693 (Arabidopsis thaliana, UniProt Q9SKN5); chain LQGLETGHCKVFMESEDVGRTLDLSVIGSYQELYRKLAEMFHIEERSDLLTHVVYRDANGVIKRIGDEPFSDFMKATKRLTIKMDIGGDNVRKTWITGIRTGENGIDASTKTGPLSIFA
# B4: IAA34 (Arabidopsis thaliana, UniProt Q9C5X0); chain MYCSDPPHPLHLVASDKQQKDHKLILSWKKPTMDSDPLGVFPNSPKYHPYYSQTTEFGGVIDLGLSLRTIQHEIYHSSGQRYCSNEGYRRKWGYVKVTMDGLVVGRKVCVLDHGSYSTLAHQLEDMFGMQSVSGLRLFQMESEFCLVYRDEEGLWRNAGDVPWNEFIESVERLRITRRNDAVLPF
Sequence,partner,positive tests
B1 (IAA17),"T1, itself",2
B2 (IAA33),"T2, itself",1
B3 (ARF10 575-693),"T3, itself",0
B4 (IAA34),"T4, itself",2

# Excerpt of the above (further values, each from its own experiment):
Sequence,partner,positive tests
B1 (IAA17),"T1, itself",2
B2 (IAA33),"T2, itself",1
B3 (ARF10 575-693),"T3, itself",0
B4 (IAA34),"T4, itself",2
